# Published values gathered from unrelated publications.
# Each line is one published result; not all experiments were run side by side. ± marks the error that the study gave.
# PTH1R: Parathyroid hormone/parathyroid hormone-related peptide receptor (PTH1R, Homo sapiens, UniProt Q03431)
# MTNR1A: Melatonin receptor type 1A (MTNR1A, Homo sapiens, UniProt P48039)
# GBA2: Beta-glucosidase (GBA2, Homo sapiens, UniProt Q9HCG7)
Structure (SMILES),target or system,test,test system,setting,scale,endpoint,value
CCCCCCCCCCCCCCCC(=O)N[C@H](CCCNC(=N)N)C(=O)NCCCC[C@H](NC(=O)[C@H](CCCCNC(=N)N)NC(=O)[C@H](CCC(N)=O)NC(=O)[C@H](Cc1c[nH]cn1)NC(=O)[C@H](CCCC)NC(=O)[C@H](CC(C)C)NC(=O)[C@H](CCC(N)=O)NC(=O)[C@@H](NC(=O)[C@H](CCC(=O)O)NC(=O)C(C)(C)NC(=O)[C@@H](NC(=O)C1(N)CCCC1)C(C)C)[C@@H](C)CC)C(N)=O,PTH1R,"cAMP response, agonist, GloSensor cAMP",GP-2.3,washout phase,,Emax,139 ± 15%
COc1ccc2[nH]c(Br)c(CCNC(C)=O)c2c1,MTNR1A,"GTPγS binding, agonist, radiometric",,cell membranes,,Emax,85%
COC1CN([C@H]2CC[C@H]([C@@]3(C)Oc4c(Cl)cc(C(=O)NCc5c(SC)cc(C)[nH]c5=O)c(C)c4O3)CC2)C1,,"RNA-seq, refers to: PCGF2","human, whole blood","dose not given, 24 h",relative to: pretreatment baseline,log2 fold change,2.33
CCCCCCCCCCCCCCCC(=O)N[C@H](CCC(=O)O)C(=O)NCCCC[C@H](NC(=O)[C@H](CCCCNC(=N)N)NC(=O)[C@H](CCC(N)=O)NC(=O)[C@H](Cc1c[nH]cn1)NC(=O)[C@H](CCCC)NC(=O)[C@H](CC(C)C)NC(=O)[C@H](CCC(N)=O)NC(=O)[C@@H](NC(=O)[C@H](CCC(=O)O)NC(=O)C(C)(C)NC(=O)[C@@H](NC(=O)C1(N)CCCC1)C(C)C)[C@@H](C)CC)C(N)=O,PTH1R,"cAMP response, agonist, GloSensor cAMP",GP-2.3,washout phase,,Emax,92 ± 7%
CCc1cc(O)cc2c(/C=N/NC(=N)NCCc3ccc(Cl)cc3)c[nH]c12,"Relaxin-3 receptor 1 (RXFP3, Homo sapiens, UniProt Q9NSD7, F146A)",,HEK-293T,,relative to: wild type,Emax,53.8 ± 3.73%
O=C1C[C@H](c2nc(-c3ccc(F)c4cn[nH]c34)no2)CCCN1c1ccc(F)cc1 (racemic),"Cannabinoid receptor 2 (CNR2, Homo sapiens, UniProt P34972, F281A)","cAMP level, GloSensor cAMP",,CB2 mutant,relative to: wild-type receptor,Emax,45.7%
Cc1ccccc1-c1ccc(COCCCCCN2C[C@H](O)[C@@H](O)[C@H](O)[C@H]2CO)cc1,GBA2,"inhibitor, 4MU-β-D-glucopyranoside",HEK293T homogenates overexpressing GBA2,,relative to: GCS IC50 over GBA2 IC50,selectivity ratio,50
COc1ccc(C2(C(=O)N3CCC(Nc4nc5ccccc5c(=O)[nH]4)CC3)CC2)cc1,"MRGPRD (Homo sapiens, UniProt Q8TDS7)","miniGq recruitment, agonist, BRET",HEK293T,wild type,relative to: wild type,Emax,101 ± 5.18%
CNC(=N)NCCC[C@H](NC(=O)[C@H](CC(C)C)NC(=O)NNC(=O)[C@H](Cc1ccccc1)NC(=O)[C@@H](NC(=O)[C@H](CC(N)=O)NC(=O)[C@@H]1C[C@@H](O)CN1C(=O)[C@@H](Cc1ccc(O)cc1)NC(C)=O)[C@@H](C)O)C(=O)N[C@@H](Cc1c[nH]c2ccccc12)C(N)=O,"KiSS-1 receptor (KISS1R, Homo sapiens, UniProt Q969F8, R154A)","IP1 accumulation, agonist, HTRF",HEK293 cells,"1 h, 37 °C, R154A mutant",,Emax,0.24%
COc1cc2c(CCNC(C)=O)c[nH]c2cc1Cl,MTNR1A,"GTPγS binding, agonist, radiometric",,cell membranes,,Emax,74%
COc1cc(C2C(NC(=O)c3ccc(NC(=O)OC(C)(C)C)cc3)(C(=O)O)C(c3ccc(OC(=O)c4cccs4)c(OC)c3)C2(NC(=O)c2ccc(NC(=O)OC(C)(C)C)cc2)C(=O)O)ccc1OC(=O)c1cccs1 (centres unmarked),"Glucagon-like peptide 1 receptor (GLP1R, Homo sapiens, UniProt P43220, E34A)","cAMP accumulation, agonist",,receptor mutant,relative to: wild type,Emax,104 ± 3.78%
CCCCCCN1C[C@H](O)[C@@H](O)[C@H](O)[C@@H]1CO,GBA2,"inhibitor, 4MU-β-D-glucopyranoside",HEK293T homogenates overexpressing GBA2,,relative to: GBA1 IC50 over GBA2 IC50,selectivity ratio,7140
CSCC[C@H](NC(=O)[C@H](CC(C)C)NC(=O)CNC(=O)[C@H](Cc1ccccc1)NC(=O)[C@H](Cc1ccccc1)NC(=O)[C@@H](N)CCC(N)=O)C(N)=O,"Substance-P receptor, with miniGs/q (TACR1, Homo sapiens, UniProt P25103)","miniGs/q recruitment, BRET",HEK293,30 min,relative to: 10 µM substance P,Emax,80 ± 3%
COc1cc(I)c(Cc2cc(OC)c(OC)cc2CC(=O)OC(C)(C)C)cc1OC,MTNR1A,"β-arrestin recruitment, agonist",CHO-K1,90 min,,Emax,41%
CCCCCCCCCCCCCCCC(=O)N[C@@H](CCC(=O)O)C(=O)NCCCC[C@H](NC(=O)[C@H](CCC(N)=O)NC(=O)[C@H](Cc1c[nH]cn1)NC(=O)[C@H](CCCC)NC(=O)[C@H](CC(C)C)NC(=O)[C@H](CCC(N)=O)NC(=O)[C@@H](NC(=O)[C@H](CCC(=O)O)NC(=O)C(C)(C)NC(=O)[C@@H](NC(=O)C1(N)CCCC1)C(C)C)[C@@H](C)CC)C(N)=O,PTH1R,"cAMP response, agonist, GloSensor cAMP",GP-2.3,ligand-on phase,,Emax,83.9 ± 2%
COc1ccc2[nH]c(I)c(CCNC(C)=O)c2c1,MTNR1A,"β-arrestin recruitment, agonist",CHO-K1,90 min,,Emax,98%
COc1ccc(C(=O)c2c(C(=O)NCCCN(C)C)oc3ccc(Cl)cc3c2=O)cc1OC,"Growth hormone secretagogue receptor type 1 (GHSR, Homo sapiens, UniProt Q92847, E197A)","Gαq dissociation, TRUPATH BRET",HEK293T,,,Emax,93.1 ± 7.1%
